Assay results from different studies.
Each numbered part is a random draw from the data of one study; scales do not carry over between parts. Values joined by “and” are separate records of one study, mostly repeats; a detail may differ.
UniProt Q16584, sequence (whole entry, looked up): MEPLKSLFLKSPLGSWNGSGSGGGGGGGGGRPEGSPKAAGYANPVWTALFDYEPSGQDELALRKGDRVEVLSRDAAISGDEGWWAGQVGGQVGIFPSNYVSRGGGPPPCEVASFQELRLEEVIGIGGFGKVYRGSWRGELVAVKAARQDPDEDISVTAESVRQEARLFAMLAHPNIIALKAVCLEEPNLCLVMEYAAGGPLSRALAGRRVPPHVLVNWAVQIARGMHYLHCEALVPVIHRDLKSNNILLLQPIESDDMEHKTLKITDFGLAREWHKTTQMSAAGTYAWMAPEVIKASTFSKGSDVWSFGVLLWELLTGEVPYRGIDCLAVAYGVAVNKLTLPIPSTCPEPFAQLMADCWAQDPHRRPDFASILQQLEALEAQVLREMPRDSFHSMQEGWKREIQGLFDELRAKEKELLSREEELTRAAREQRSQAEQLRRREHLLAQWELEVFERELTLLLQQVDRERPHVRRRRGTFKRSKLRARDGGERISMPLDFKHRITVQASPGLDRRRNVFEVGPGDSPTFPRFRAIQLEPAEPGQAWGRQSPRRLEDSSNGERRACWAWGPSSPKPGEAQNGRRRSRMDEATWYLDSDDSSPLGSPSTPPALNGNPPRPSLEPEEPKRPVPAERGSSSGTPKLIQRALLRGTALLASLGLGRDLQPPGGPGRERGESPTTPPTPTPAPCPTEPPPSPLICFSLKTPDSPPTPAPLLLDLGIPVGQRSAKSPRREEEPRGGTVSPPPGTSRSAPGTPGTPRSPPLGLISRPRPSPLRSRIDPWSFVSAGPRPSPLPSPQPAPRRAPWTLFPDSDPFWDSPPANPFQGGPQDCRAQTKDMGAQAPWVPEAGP
UniProt P31751, sequence (whole entry, looked up): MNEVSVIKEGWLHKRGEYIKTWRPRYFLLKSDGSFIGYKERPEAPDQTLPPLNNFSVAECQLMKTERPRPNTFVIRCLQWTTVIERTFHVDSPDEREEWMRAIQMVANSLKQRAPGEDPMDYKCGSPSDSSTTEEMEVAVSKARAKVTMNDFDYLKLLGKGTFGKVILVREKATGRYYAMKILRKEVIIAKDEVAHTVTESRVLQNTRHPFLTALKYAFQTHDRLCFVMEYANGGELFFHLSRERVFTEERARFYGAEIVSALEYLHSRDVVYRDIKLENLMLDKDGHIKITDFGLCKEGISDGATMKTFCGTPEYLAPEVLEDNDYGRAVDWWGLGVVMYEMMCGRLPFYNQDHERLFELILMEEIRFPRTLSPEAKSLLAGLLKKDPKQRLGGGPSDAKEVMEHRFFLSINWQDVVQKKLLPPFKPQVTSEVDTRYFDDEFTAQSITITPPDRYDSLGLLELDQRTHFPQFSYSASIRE
UniProt P51956, sequence (whole entry, looked up): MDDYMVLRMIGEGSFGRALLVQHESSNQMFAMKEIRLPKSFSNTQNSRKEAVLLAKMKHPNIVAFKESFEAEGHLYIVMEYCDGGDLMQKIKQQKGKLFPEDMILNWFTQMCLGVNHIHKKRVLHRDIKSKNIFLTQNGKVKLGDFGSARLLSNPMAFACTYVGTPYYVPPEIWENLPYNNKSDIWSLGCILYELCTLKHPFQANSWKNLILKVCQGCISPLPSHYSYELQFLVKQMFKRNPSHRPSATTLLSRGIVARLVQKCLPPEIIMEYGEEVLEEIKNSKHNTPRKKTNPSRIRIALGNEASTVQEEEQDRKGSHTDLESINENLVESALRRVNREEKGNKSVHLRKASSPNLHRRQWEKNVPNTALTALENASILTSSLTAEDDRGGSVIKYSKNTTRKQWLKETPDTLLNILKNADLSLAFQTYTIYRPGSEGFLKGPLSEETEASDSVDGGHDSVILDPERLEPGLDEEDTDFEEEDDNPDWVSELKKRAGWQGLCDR
UniProt O14965, sequence (whole entry, looked up): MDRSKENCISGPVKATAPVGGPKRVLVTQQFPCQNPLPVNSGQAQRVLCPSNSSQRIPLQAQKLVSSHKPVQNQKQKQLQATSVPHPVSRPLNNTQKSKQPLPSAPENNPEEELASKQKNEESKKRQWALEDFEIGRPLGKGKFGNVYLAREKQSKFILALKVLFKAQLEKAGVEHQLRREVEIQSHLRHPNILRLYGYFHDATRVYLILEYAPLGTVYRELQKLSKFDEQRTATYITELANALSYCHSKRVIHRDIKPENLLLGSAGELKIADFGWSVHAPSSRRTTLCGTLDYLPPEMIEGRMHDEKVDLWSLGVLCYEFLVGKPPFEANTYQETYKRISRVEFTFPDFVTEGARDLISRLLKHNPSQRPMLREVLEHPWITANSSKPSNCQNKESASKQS
UniProt Q02750, sequence (whole entry, looked up): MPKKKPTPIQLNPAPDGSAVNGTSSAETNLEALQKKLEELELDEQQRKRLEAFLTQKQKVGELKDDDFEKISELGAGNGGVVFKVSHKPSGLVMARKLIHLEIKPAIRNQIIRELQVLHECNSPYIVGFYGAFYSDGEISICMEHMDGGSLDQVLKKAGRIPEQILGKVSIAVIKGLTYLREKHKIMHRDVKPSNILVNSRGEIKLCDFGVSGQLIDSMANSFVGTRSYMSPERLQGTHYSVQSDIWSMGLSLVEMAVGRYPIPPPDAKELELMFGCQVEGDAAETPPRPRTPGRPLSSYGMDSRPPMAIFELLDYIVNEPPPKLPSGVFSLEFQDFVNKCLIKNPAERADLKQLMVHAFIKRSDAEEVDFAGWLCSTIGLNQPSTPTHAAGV
UniProt P42681, sequence (whole entry, looked up): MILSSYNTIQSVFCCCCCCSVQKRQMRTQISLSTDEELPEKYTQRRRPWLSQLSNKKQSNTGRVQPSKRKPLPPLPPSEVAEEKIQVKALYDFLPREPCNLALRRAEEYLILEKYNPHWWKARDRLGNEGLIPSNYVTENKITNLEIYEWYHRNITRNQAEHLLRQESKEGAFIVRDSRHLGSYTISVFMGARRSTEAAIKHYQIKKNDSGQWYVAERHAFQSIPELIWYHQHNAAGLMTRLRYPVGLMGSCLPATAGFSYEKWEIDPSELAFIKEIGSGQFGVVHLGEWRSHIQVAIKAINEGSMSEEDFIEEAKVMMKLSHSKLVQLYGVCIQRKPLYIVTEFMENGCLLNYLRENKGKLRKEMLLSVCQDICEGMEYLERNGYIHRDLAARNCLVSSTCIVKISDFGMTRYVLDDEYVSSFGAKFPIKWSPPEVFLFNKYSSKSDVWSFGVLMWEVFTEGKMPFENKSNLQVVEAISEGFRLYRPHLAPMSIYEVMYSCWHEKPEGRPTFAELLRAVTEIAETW
UniProt Q8IY84, sequence (whole entry, looked up): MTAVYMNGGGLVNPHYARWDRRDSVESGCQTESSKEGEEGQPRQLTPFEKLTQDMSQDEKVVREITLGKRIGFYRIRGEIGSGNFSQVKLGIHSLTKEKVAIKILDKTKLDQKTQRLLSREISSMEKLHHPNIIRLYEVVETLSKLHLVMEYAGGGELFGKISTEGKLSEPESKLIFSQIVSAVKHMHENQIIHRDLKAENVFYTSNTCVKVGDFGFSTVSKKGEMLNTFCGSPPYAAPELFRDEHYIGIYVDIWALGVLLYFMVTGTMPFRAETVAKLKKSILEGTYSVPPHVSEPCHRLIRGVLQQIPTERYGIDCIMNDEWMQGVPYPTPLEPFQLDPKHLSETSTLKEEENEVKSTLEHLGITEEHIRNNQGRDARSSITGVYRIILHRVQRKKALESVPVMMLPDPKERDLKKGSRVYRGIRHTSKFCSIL
UniProt Q96L34, sequence (whole entry, looked up): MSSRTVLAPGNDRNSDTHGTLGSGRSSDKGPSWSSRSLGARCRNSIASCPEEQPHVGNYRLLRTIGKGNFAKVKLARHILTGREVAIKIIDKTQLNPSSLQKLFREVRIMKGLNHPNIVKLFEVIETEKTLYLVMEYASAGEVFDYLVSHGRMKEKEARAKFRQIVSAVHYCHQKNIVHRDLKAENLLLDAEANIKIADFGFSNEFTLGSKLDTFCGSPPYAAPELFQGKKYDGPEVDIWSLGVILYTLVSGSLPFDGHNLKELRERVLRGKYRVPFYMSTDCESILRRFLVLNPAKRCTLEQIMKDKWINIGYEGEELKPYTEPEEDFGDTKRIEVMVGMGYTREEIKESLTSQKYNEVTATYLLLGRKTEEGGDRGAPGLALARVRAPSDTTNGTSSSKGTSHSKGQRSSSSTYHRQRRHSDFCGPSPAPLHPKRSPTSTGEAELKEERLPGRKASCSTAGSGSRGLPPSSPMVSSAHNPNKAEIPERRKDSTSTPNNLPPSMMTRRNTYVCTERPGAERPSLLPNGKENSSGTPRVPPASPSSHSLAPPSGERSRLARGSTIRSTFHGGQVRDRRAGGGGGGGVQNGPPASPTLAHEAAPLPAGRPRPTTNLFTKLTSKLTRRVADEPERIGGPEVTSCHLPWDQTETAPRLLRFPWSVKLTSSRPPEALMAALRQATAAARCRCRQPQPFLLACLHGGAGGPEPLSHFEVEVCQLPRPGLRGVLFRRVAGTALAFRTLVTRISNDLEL
UniProt Q9H4B4, sequence (whole entry, looked up): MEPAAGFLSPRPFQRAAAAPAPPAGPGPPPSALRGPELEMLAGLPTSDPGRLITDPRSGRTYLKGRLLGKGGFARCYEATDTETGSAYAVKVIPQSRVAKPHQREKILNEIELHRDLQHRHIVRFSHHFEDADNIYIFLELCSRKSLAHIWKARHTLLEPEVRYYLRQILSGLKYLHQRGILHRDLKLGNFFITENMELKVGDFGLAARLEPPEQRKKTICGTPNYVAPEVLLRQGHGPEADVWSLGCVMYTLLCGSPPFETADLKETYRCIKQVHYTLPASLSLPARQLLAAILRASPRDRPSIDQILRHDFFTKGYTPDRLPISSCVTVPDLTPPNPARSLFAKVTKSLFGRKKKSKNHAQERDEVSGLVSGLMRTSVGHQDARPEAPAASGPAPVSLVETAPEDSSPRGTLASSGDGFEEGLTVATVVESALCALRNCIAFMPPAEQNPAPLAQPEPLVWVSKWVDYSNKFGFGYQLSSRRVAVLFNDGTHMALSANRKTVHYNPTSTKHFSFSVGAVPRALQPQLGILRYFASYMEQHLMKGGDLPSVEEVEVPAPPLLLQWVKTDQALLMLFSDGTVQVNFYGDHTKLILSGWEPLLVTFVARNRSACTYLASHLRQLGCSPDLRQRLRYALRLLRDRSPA

Block 1 — cell line: mouse MPNST tumor cells; technique: high-content nuclear imaging; measured: cell number; tested at: 10 µM; time: 12 h; setting: mean of 2 replicates; relative to: plate mean; direction: higher = more cells
SMILES | nuclei count
CCC(C)(CN(C)C)OC(=O)c1ccccc1 (stereo not shown) | 0.169 z-score
CC(C)(C)NCC(O)c1cc(O)cc(O)c1 (stereo not shown) | -0.0551 z-score
NCCNS(=O)(=O)c1ccc(Cl)c2ccncc12 | 1.27 z-score
Cn1cc(CCn2cnc(-c3cnn(C)c3)c2-c2ccc(C#N)cc2)cn1 | 0.623 z-score and 1.95 z-score

Block 2 — technique: competitive binding panel; tested at: 1 µM; relative to: vehicle
Compound: COc1ccc2[nH]c3c4[nH]c5ccc(OC)cc5c4c4c(c3c2c1)C(=O)NC4=O
target | measured | remaining binding [%]
NLK (Homo sapiens, UniProt Q9UBE8) | – | 52
MAP2K4 (Homo sapiens, UniProt P45985) | MEK4 | 91
MAP3K11 (Homo sapiens, UniProt Q16584) | MLK3 | 5.6
Aurora kinase A (AURKA, Homo sapiens, UniProt O14965) | – | 57
NIM1K (Homo sapiens, UniProt Q8IY84) | NIM1 | 100
EPHA6 (Homo sapiens, UniProt Q9UF33) | – | 88

Block 3 — host: mouse; matrix: microsomes or S9; tested at: 2 µM; time: 0.5 h
SMILES | remaining compound
Cc1cnc(C)n1CCNS(=O)(=O)c1cccs1 | 34.4%
O=S(=O)(Nc1ccc2[nH]ncc2c1)c1cc(Cl)c(Cl)cc1Cl | 98.3%
CNC(=O)c1cc(Cl)cc(C)c1NC(=O)c1ncc2cccn2c1-c1cnccc1Br | 50.2%
Cc1cccc(/N=c2/ncc3c([nH]2)CC(c2ccc(F)cc2)CC3=O)c1 (stereo not shown) | 6.28%
CON(C)C(=O)c1cc(C(C)C)nc2c1c(C)nn2C(C)(C)C | 2.6%

Block 4 — effect on: enzyme activity; mode: inhibitor; tested at: 0.5 µM; relative to: control
SMILES: C[S+]([O-])c1ccc(-c2nc(-c3ccncc3)c(-c3ccc(F)cc3)[nH]2)cc1 (stereo not shown)
target | remaining activity [%]
MAP2K1 (Homo sapiens, UniProt Q02750) | 94.8
PLK3 (Homo sapiens, UniProt Q9H4B4) | 97.3
MARK4 (Homo sapiens, UniProt Q96L34) | 98.5
TXK (Homo sapiens, UniProt P42681) | 63.9
RPS6KA4 (Homo sapiens, UniProt O75676) | 99.6
CLK4 (Homo sapiens, UniProt Q9HAZ1) | 98.7
DDR2 (Homo sapiens, UniProt Q16832) | 103
MARK2 (Homo sapiens, UniProt Q7KZI7) | 99.1
MAPK1 (Homo sapiens, UniProt P28482) | 94.7
PRKG2 (Homo sapiens, UniProt Q13237) | 92.7
PNCK (Homo sapiens, UniProt Q6P2M8) | 102
MET (Homo sapiens, UniProt P08581) | 103
AKT2 (Homo sapiens, UniProt P31751) | 96.8
MINK1 (Homo sapiens, UniProt Q8N4C8) | 107
Cyclin-dependent kinase 1, with cyclin A (CDK1, Homo sapiens, UniProt P06493) | 91.2
NEK3 (Homo sapiens, UniProt P51956) | 92.2
GRK4 (Homo sapiens, UniProt P32298) | 95.5
Cyclin-dependent kinase 9, with cyclin K (CDK9, Homo sapiens, UniProt P50750) | 98.6
CAMK4 (Homo sapiens, UniProt Q16566) | 101
CDC42BPB (Homo sapiens, UniProt Q9Y5S2) | 105

Block 5 — effect on: binding; technique: radioligand binding; tested at: 10 µM
SMILES: CCC(=O)N[C@@H]1CC[C@H](C(=O)N(C)c2ccc(-c3nc4ccccc4o3)cc2)C1
target | inhibition
CHRM5 (Homo sapiens, UniProt P08912) | 15.4%
ADRA1A (Homo sapiens, UniProt P35348) | 19.5%
SIGMAR1 (Homo sapiens, UniProt Q99720) | 38.3%
ADRB2 (Homo sapiens, UniProt P07550) | 0.247%
DRD4 (Homo sapiens, UniProt P21917) | 16.4%

Excerpt of the above (block 2):
target | measured | remaining binding [%]
Aurora kinase A (AURKA, Homo sapiens, UniProt O14965) | – | 57
MAP2K4 (Homo sapiens, UniProt P45985) | MEK4 | 91
EPHA6 (Homo sapiens, UniProt Q9UF33) | – | 88
MAP3K11 (Homo sapiens, UniProt Q16584) | MLK3 | 5.6
NIM1K (Homo sapiens, UniProt Q8IY84) | NIM1 | 100
NLK (Homo sapiens, UniProt Q9UBE8) | – | 52
